# Results collected from several papers.
# Each numbered part is a random draw from the data of one study; scales do not carry over between parts.

# Set 1
# Target: Ras GTPase-activating protein-binding protein 1, full length (G3BP1, Homo sapiens, UniProt Q13283)
# UniProt Q13283, sequence (whole entry, looked up): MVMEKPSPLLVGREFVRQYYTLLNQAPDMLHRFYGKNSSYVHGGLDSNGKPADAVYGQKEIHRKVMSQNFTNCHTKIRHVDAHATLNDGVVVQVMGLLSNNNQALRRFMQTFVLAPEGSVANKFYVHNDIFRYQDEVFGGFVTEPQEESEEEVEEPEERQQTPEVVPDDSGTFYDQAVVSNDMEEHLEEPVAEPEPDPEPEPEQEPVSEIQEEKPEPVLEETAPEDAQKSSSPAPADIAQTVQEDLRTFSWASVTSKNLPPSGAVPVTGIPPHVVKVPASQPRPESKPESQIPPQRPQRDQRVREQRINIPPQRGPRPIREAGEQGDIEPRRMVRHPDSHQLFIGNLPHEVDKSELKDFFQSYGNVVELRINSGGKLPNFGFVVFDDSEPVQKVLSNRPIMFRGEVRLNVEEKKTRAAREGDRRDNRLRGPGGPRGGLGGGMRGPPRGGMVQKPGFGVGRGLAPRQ
# Method: RNA Bind-n-Seq
# Form: RNA
# Sample: in vitro
# Tested at: 200 nM
# Notes: whole 134-nt RNA, ends assumed
# With: 150 mM KCl
# Relative to: input library
# Direction: higher = stronger binding
# Shared flanks, not repeated: GGGAGUUCUACAGUCCGACGAUC … UGGAAUUCUCGGGUGUCAAGG
Oligonucleotide,log2 enrichment
UGGCCCUGGUGGCAUGCGGGGAGGAAGAGGUGGCCUCAUGGAUCGUGGUGGUCCCGGUGGAAUGUUCAGAGGUGGCCGUGGUCGAGACAG,-0.116
ACCAUGCAGGUGGGCAUCUUUGGGAAGUGGGGCAAGGCGGGGAUAGGGAGGGGGGUAACACUUUGGGAACAGGUGGUCCCAGGUCGUUUC,1.28
AGUCCUGUGCUACACAUCGUAUGUACCGAAUCGGGUUUGGGUUUUUGGGAAAAAGGGAAAGUAUUAUGUUACGCCGUUCGGAUCUGCACU,-0.235
ACCAUGCAGGUGGGCAUGUUUGGGAAGUGGGGCAAGGGGGGGAUAGGGAGGGGGGUAACACUUUGGGAACAGGUGGUCCCAGGUCGUUUC,1.05
CAAGUCCUGUGCUACACAUCGUAUGUACCGAAUCGGUUUUUGGUUUGGUUUUUGGAAAGUAUUAUGUUACGCCGUUCGGAUCUGCACUUC,-0.872
UUUACCCCUCACUGGAGUCAGAUGAAGACAACCCCAUCUUUAAGUCCCGGUCGAAGAAAAGGAAAGGCUCAGACGACGCUCCCUACAGCC,-0.035
CAAGUCCUGUGCUACACAUCGUAUGUACCGAAUCGGGGAGGGGUGGGGAAAGGGGAAAGUAUUAUGUUACGCCGUUCGGAUCUGCACUUC,1.48
GUCCUGUGCUACACAUCGUAUGUACCGAAUCGGGUUUUUUUGGGUUUUUGGGAAAGGGAAAGUAUUAUGUUACGCCGUUCGGAUCUGCAC,-0.447
AGUCCUGUGCUACACAUCGUAUGUACCGAAUCGGUUUUUUUGGUUUUUUUGGAAAGGAAAGUAUUAUGUUACGCCGUUCGGAUCUGCACU,-1.59

# Set 2
# Target: Sal-like protein 4, full length isoform A (SALL4, Homo sapiens, UniProt Q9UJQ4, residues 1-1053)
# UniProt Q9UJQ4, sequence (whole entry, looked up): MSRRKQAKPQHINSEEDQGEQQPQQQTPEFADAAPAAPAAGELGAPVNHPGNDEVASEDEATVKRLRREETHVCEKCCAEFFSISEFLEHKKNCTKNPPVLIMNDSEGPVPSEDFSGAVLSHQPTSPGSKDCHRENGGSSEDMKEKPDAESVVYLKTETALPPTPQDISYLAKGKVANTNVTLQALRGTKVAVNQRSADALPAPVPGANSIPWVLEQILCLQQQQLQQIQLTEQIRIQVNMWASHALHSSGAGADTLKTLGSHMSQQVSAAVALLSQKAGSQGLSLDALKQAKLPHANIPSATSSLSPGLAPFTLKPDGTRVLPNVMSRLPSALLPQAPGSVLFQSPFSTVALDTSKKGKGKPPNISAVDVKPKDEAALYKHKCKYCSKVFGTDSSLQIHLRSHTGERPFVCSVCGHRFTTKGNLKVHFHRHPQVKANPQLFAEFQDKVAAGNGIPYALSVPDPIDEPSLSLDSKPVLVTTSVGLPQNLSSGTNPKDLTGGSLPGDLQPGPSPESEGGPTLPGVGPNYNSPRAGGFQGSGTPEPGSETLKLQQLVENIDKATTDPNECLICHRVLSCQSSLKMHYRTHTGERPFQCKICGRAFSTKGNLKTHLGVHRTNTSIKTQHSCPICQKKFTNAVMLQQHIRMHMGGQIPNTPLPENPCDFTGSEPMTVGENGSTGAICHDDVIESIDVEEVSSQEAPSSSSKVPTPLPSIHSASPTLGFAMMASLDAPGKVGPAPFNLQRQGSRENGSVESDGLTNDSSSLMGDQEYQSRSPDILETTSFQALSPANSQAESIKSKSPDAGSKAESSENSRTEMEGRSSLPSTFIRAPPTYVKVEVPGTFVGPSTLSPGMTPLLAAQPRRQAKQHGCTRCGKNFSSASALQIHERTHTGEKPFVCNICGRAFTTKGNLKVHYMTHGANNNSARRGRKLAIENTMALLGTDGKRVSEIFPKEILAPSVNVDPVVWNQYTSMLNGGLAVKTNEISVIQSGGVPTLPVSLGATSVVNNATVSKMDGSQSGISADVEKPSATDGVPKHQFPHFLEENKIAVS
# Method: universal PBM
# Form: double-stranded DNA, one strand shown
# Sample: in vitro
# Tested at: 600 nM
# Notes: 8-mer, flanks averaged, mean of replicates
# Direction: higher = stronger binding
Oligonucleotide,E-score
TCAGGGCA,-0.0871
CCGCAACC,-0.207
CTAGCCAA,-0.0416
CACCTCTA,0.00404
ATAGGAGC,0.149
AACTCGAT,0.118
AGCACGCT,-0.262
GTAAGTAC,0.0676
GATTGCTA,0.022
AGCCTCGG,-0.339
AACGAACT,0.0532
CTGGTATA,-0.0301
CTAGCGTA,-0.166
CACGGCCC,-0.23
GAAACACC,-0.0953
GACAGCAA,0.105
GACCTCCA,-0.206
ACCTACAA,0.237

# Set 3
# Target: Histone acetyltransferase KAT6A, both winged helices, GST fusion (KAT6A, Homo sapiens, UniProt Q92794, residues 1-181)
# Method: protein binding microarray
# Form: double-stranded DNA, one strand shown
# Sample: in vitro
# Tested at: not given
# Notes: 8-mer, flanks averaged, mean of 2 arrays, mostly near background
# Relative to: not given
# Direction: higher = stronger binding
# Residues (chain): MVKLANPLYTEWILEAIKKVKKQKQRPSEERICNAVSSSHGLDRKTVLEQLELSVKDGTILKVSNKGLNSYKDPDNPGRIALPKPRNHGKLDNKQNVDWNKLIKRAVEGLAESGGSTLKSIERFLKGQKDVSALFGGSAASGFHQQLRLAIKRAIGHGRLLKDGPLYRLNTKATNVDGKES
Oligonucleotide,E-score
AAGCGTCT,0.122
GCTCGCCA,0.0587
GCTAATTA,0.0213
CAATGCGA,-0.097
TGGGCGAA,-0.0147
ACGGCGTA,0.251
ACCTAGTA,-0.0943
ATGGGGGC,-0.194
GCAGGGCA,-0.0988
CGAAATTC,0.105
CGGTAGAA,0.101
AAACGAGT,-0.17
ACGCCCGC,0.276
GGATTGAC,0.00458
CCTAAAAC,-0.00725
AGACTTGG,-0.203
TAGTTAGA,-0.0293
CGTCTCCC,0.0943
ATGCTATC,-0.000105
ACCTCAGA,-0.235
ACATCTCA,-0.00328
CAGCTCTA,-0.0624
GGTGCAAC,-0.0306
GCTCGTTA,-0.165
CTGCGGAC,0.168

# Set 4
# Target: Interferon regulatory factor 5, full length, phosphomimetic (IRF5, Homo sapiens, UniProt Q13568-2, residues 1-514, K96S/S451D/S453D/S456D/S462D)
# Method: protein-binding microarray
# Form: double-stranded DNA, one strand shown
# Sample: in vitro
# Tested at: 250 nM
# Notes: 60-bp whole probe
# With: salmon DNA 0.4 mg/ml
# Relative to: random background probes
# Direction: higher = stronger binding
# Shared flanks, not repeated: GCCTAGCAC … GTCTTGATTCGCTTGACGCTGCTG
Oligonucleotide,log fluorescence [z-score]
TTAGGACTGGACTTTAGGTTAGTGCTA,-0.0998
TTCTGGTTCCCATTCCAGGGGTGCTAG,0.832
TTAGGACTGCACTATCGGTTAGTGCTA,6.4
TTGTTTTACAATTTGCTTTAGTGCTAG,1.09
GTCGGACTGGGTTTCGGGACGTGCTAG,2.43
TCATTTCTCAGTTTATTACTGTGCTAG,1.26
TTTTTTTTATTTATAAATTAGTGCTAG,1.6
TTAGGACTACTTATCCTTTAGTGCTAG,-0.22
TCACCTTGATGTCTGGGACTGTGCTAG,-0.305
GACCATATCGGGTTTCGAGACGTGCTA,2.86
GTGGGAAACCGGAAAGGCAAAGTGCTA,-0.0342
TTAGAGATCGGGACTGGATTAGTGCTA,-0.335
GACGATCTCATTCTCGAGACGTGCTAG,0.0285

# Set 5
# Target: RING finger protein unkempt homolog, zinc fingers 1-6, GST-SBP tag (UNK, Homo sapiens, UniProt Q9C0B0, residues 30-357)
# Method: RNA Bind-n-Seq
# Form: RNA
# Sample: in vitro
# Tested at: not given
# Notes: RNA with constant flanks, ends assumed
# Relative to: input RNA pool
# Direction: higher = stronger binding
# Shared flanks, not repeated: GGGAGUUCUACAGUCCGACGAUC … CAACAGAGGAUUGAGCAUCA
# Target sequence (chain): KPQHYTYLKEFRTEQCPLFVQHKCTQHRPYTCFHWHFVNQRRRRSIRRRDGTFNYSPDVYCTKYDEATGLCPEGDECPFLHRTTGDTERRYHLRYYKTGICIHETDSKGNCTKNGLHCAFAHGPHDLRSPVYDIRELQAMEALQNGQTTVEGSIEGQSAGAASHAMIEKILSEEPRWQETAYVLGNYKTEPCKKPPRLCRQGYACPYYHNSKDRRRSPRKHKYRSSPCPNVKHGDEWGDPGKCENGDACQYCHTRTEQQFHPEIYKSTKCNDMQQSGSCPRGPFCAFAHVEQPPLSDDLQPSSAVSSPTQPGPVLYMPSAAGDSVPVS
Oligonucleotide,bound/input enrichment
CUGCCGACUGCAUUUAGUCUGGUCUCUUAACAGUUGCUUUCCUUGUCUGAUUCCCAAGUUCCGCAUUUUCAAAUUCAGAGUUCACAGAACACUUCUGGGUCUAAGCUUCCUUAAGGGGGA,0.272 ratio
AGUUUGGGAUUUGGCUCUUACAUCAGUGAAGUAAAAGAAGUCUUGCAAGAGUGUAAAACAGCCGCAUUAAAAAGAAGAAAGGCCAGUUCUCGUUUGGAAAACCUUGGCAUUCCUGAAGAA,0.177 ratio
GAAGAGAAUGAGGAGGACAGAGAAGUGUCAAGUGAAAAAGAAUUAAAUGGAGAUUCGGAUUCCGAUCCUGAAAACGAGAGUGAAGAAGAAUGAAGACAGAUGCAGCCAGCCAGUCACACG,0.249 ratio
UGUUUUGCACGGAUGGUUGGAAAUAGUGGAAAAGUCAUUGGAAUUGAUCACAUUAAAGAACCCGCCGAUGACUCAAUAACUAAUGUCAAAAAGGAUGACCCAAUGCUCCUGUCCUCGGGG,0.0576 ratio
CAGCAGUCAUCUCUCGGUAGGGAUUCACAGGGUCAUGGGCGUGACCUGUCUGCAGCAGGAACCGGCCUUCUUGCUGCUGCUACCCAGUCUUUAAGUAUGCCAGCAUCUCUUGGAAGGAUG,0.0631 ratio
GAUAUGGGCUAUAAUACUUUAGCCAACUUCCGAAUAGAAAAGAAAAUUGGUCGUGGACAAUUCCGUGAAGUUUAUAGAGCAUCCUGUCUCUUGGAUGGAGUGCCGGUAGCGUUAAAAAAA,1.06 ratio

# Some of these lines once more (set 1):
Oligonucleotide,log2 enrichment
UGGCCCUGGUGGCAUGCGGGGAGGAAGAGGUGGCCUCAUGGAUCGUGGUGGUCCCGGUGGAAUGUUCAGAGGUGGCCGUGGUCGAGACAG,-0.116
ACCAUGCAGGUGGGCAUCUUUGGGAAGUGGGGCAAGGCGGGGAUAGGGAGGGGGGUAACACUUUGGGAACAGGUGGUCCCAGGUCGUUUC,1.28
AGUCCUGUGCUACACAUCGUAUGUACCGAAUCGGGUUUGGGUUUUUGGGAAAAAGGGAAAGUAUUAUGUUACGCCGUUCGGAUCUGCACU,-0.235
ACCAUGCAGGUGGGCAUGUUUGGGAAGUGGGGCAAGGGGGGGAUAGGGAGGGGGGUAACACUUUGGGAACAGGUGGUCCCAGGUCGUUUC,1.05
CAAGUCCUGUGCUACACAUCGUAUGUACCGAAUCGGUUUUUGGUUUGGUUUUUGGAAAGUAUUAUGUUACGCCGUUCGGAUCUGCACUUC,-0.872
UUUACCCCUCACUGGAGUCAGAUGAAGACAACCCCAUCUUUAAGUCCCGGUCGAAGAAAAGGAAAGGCUCAGACGACGCUCCCUACAGCC,-0.035
CAAGUCCUGUGCUACACAUCGUAUGUACCGAAUCGGGGAGGGGUGGGGAAAGGGGAAAGUAUUAUGUUACGCCGUUCGGAUCUGCACUUC,1.48
GUCCUGUGCUACACAUCGUAUGUACCGAAUCGGGUUUUUUUGGGUUUUUGGGAAAGGGAAAGUAUUAUGUUACGCCGUUCGGAUCUGCAC,-0.447
AGUCCUGUGCUACACAUCGUAUGUACCGAAUCGGUUUUUUUGGUUUUUUUGGAAAGGAAAGUAUUAUGUUACGCCGUUCGGAUCUGCACU,-1.59
